{"data": "Published values pooled from the literature", "note": "Compare with care: the assays were run in different laboratories. Values joined by “and” are separate records of one study, mostly repeats; a detail may differ. pEC50, pIC50: −log10 of the molar value."}
{"Structure (SMILES)": "COC1=CC(c2ccc[nH]2)=N/C1=C\\c1cc(-c2ccc(OC)cc2)c(C)[nH]1.Cl", "organism": "Plasmodium yoelii", "test system": "CF1 mice", "conditions": "oral, 10 mg/kg daily for 4 days, day 5", "scale": "reference: vehicle", "quantity": "parasitaemia reduction", "result": "32.3%"}
{"Structure (SMILES)": "Cn1c(=O)ccc2ccc(F)c(CCNC[C@H]3CN(c4cnc5c(n4)NC(=O)CO5)C(=O)O3)c21", "organism": "Ureaplasma spp.", "quantity": "MIC90", "result": "< 0.015 µg/mL"}
{"Structure (SMILES)": "CC(C)/N=C(\\N)c1ccc(NC(=O)c2ccc(C(=O)Nc3ccc(/C(N)=N/C(C)C)cc3)cc2)cc1", "organism": "Tetrahymena pyriformis and Klebsiella pneumoniae", "test": "virulence in co-culture", "quantity": "pIC50", "result": 5.86}
{"Structure (SMILES)": "CC1(C)SC2C(NC(=O)C(NC(=O)C3=C(O)C(Cc4ccc(F)cc4)NC3=O)c3ccccc3)C(=O)N2C1C(=O)O (stereo not drawn)", "organism": "Escherichia coli", "test": "broth microdilution", "test system": "isolate IU 356 A, KPC-3, VIM-1, TEM", "conditions": "no clavulanic acid", "quantity": "MIC", "result": "> 200 µg/mL"}
{"Structure (SMILES)": "Cc1cc(C)cc(NC(=O)CN(C)S(=O)(=O)c2ccc3[nH]c4c(c3c2)CCCC4)c1", "organism": "Tetrahymena pyriformis and Klebsiella pneumoniae", "test": "virulence in co-culture", "quantity": "pIC50", "result": 6.80}
{"Structure (SMILES)": "O=[N+]([O-])c1cc2cc3ccc4oc([N+](=O)[O-])cc4c3cc2o1", "organism": "Mycolicibacterium aurum", "test": "REMA", "test system": "ATCC 23366", "quantity": "MIC90", "result": "0.125 µg/mL"}
{"Structure (SMILES)": "CN[C@H](CC(C)C)C(=O)N[C@H]1C(=O)N[C@@H](CC(N)=O)C(=O)N[C@H]2C(=O)N[C@H]3C(=O)N[C@H](C(=O)N[C@H](C(=O)O)c4cc(O)cc(O)c4-c4cc3ccc4O)[C@H](O)c3ccc(c(Cl)c3)Oc3cc2cc(c3O[C@@H]2O[C@H](CO)[C@@H](O)[C@H](O)[C@H]2O[C@H]2C[C@](C)(N)[C@H](O)[C@H](C)O2)Oc2ccc(cc2Cl)[C@H]1O", "organism": "Enterococcus faecalis", "test": "broth microdilution", "test system": "VanA vancomycin-resistant clinical isolates", "quantity": "MIC range", "result": "> 32 µg/mL"}
{"Structure (SMILES)": "O=C(Nc1ccsc1C(=O)NC1CCCCC1)c1ccc(F)cc1", "organism": "Plasmodium yoelii", "test": "oxygen consumption", "test system": "17XL", "conditions": "2 µM", "quantity": "inhibition", "result": "1%"}
{"Structure (SMILES)": "CS(=O)(=O)c1cccc(-c2nnc(NC(=O)c3ccc(-c4ccccc4)cc3)o2)c1", "organism": "Tetrahymena pyriformis and Klebsiella pneumoniae", "test": "virulence in co-culture", "quantity": "pIC50", "result": 6.10}
{"Structure (SMILES)": "COc1cc(NC(C)CCCN)c2ncccc2c1 (stereo not drawn)", "organism": "Dengue virus type 2", "test": "replicon Renilla luciferase", "test system": "BHK-21 DENV2 replicon cells", "conditions": "50 µM, 24 h", "quantity": "inhibition", "result": "< 0%"}
{"Structure (SMILES)": "COc1cccc(C(=O)NN(C(=O)c2cc(C)cc(C)c2)C(C)(C)C)c1C", "organism": "Anopheles funestus", "test system": "FUMOZ resistant, females", "conditions": "tarsal contact, 367 mg/m^2, with DBH-M, no RME", "scale": "reference: control", "quantity": "developing egg count", "result": "no effect"}
{"Structure (SMILES)": "CC[C@H](C)[C@H](NC(=O)[C@H](C)NC(=O)[C@H](CCCCN)NC(=O)[C@H](CC(C)C)NC(=O)[C@H](C)NC(=O)[C@@H](NC(=O)[C@H](Cc1c[nH]cn1)NC(=O)[C@H](CC(C)C)NC(=O)[C@@H](NC(=O)[C@@H](NC(=O)[C@H](CCCCN)NC(=O)[C@H](C)NC(=O)[C@H](C)NC(=O)[C@H](CO)NC(=O)[C@H](CCCCN)NC(=O)[C@H](Cc1ccccc1)NC(=O)[C@@H](NC(=O)[C@H](CCCCN)NC(=O)[C@H](CC(C)C)NC(=O)[C@H](Cc1ccccc1)NC(=O)[C@H](CO)NC(=O)[C@H](CCCCN)NC(=O)[C@H](Cc1c[nH]c2ccccc12)NC(=O)[C@H](CCCCN)NC(C)=O)[C@@H](C)O)[C@@H](C)O)C(C)C)[C@@H](C)O)C(=O)N[C@@H](CO)C(=O)N[C@@H](CO)C(N)=O", "organism": "Enterococcus faecalis", "conditions": "40 strains", "quantity": "MIC50", "result": "16 µg/mL"}
{"Structure (SMILES)": "O=C(O)c1cc(Br)c(O)c(Br)c1", "organism": "Tetrahymena pyriformis and Klebsiella pneumoniae", "test": "virulence in co-culture", "quantity": "pIC50", "result": 6.49}
{"Structure (SMILES)": "CCCCc1c([N+](=O)[O-])oc2ccc3ccccc3c12", "organism": "Klebsiella aerogenes", "test": "REMA", "quantity": "MIC90", "result": "> 32 µg/mL"}
{"Structure (SMILES)": "COC1=CC(c2ccc[nH]2)=N/C1=C\\c1cc(Cc2ccc(Cl)cc2)c(C)[nH]1.Cl", "organism": "Plasmodium yoelii", "test": "parasitaemia", "test system": "mouse", "conditions": "4-day treatment, parasitaemia day 5", "quantity": "ED90", "result": "4.03 mg/kg/day"}
{"Structure (SMILES)": "COc1cc(/C=N\\NC(=O)c2ccc(Br)cc2)ccc1OC(=O)c1cccs1", "organism": "Tetrahymena pyriformis and Klebsiella pneumoniae", "test": "virulence in co-culture", "quantity": "pIC50", "result": 5.47}
{"Structure (SMILES)": "COC1=CC(c2ccc[nH]2)=N/C1=C\\c1[nH]c(Cc2ccc(OC)cc2)cc1Cc1ccc(OC)cc1.Cl", "organism": "Plasmodium yoelii", "test system": "CF1 mice", "conditions": "oral, 10 mg/kg daily for 4 days, day 5", "scale": "reference: vehicle", "quantity": "parasitaemia reduction", "result": "78.5%"}
{"Structure (SMILES)": "CC[C@H](C)[C@H](NC(=O)[C@H](CC(C)C)NC(=O)[C@H](CC(C)C)NC(=O)[C@H](Cc1c[nH]cn1)NC(=O)[C@H](CCCCN)NC(=O)[C@H](Cc1c[nH]cn1)NC(=O)[C@H](CCCNC(=N)N)NC(=O)[C@@H]1CCCN1C(=O)[C@H](Cc1ccc(O)cc1)NC(=O)[C@H](CC(C)C)NC(=O)[C@H](CCC(N)=O)NC(=O)[C@@H](N)CO)C(=O)N[C@@H](CCCCN)C(=O)N[C@@H](CCCNC(=N)N)C(=O)N[C@@H](CO)C(=O)N[C@@H](CC(C)C)C(=O)N[C@@H](CCCNC(=N)N)C(=O)N[C@@H](CS)C(=O)N[C@@H](CCCNC(=N)N)C(=O)N[C@@H](CCCCN)C(=O)N[C@@H](CS)C(=O)O", "organism": "Staphylococcus haemolyticus", "quantity": "MBC", "result": "32 µg/mL"}
{"Structure (SMILES)": "COc1ccc(OC)c(C=CC(=O)NC2CCC(CN3CCC(c4c[nH]c5ccccc45)CC3)CC2)c1 (stereo not drawn)", "organism": "Plasmodium yoelii", "test system": "17XL", "conditions": "384-well", "quantity": "pIC50", "result": "< 4.70"}
{"Structure (SMILES)": "Cc1ncc([N+](=O)[O-])n1CCO", "organism": "Bacteroides fragilis", "quantity": "MIC90", "result": "1 µg/mL"}
{"Structure (SMILES)": "Cc1c2c(nn1C)CSCc1cc(n(C)n1)CSc1cc(c3ccccc3c1)OCCCc1c(C(=O)O)n(C)c3c-2c(Cl)ccc13", "organism": "Staphylococcus aureus", "test": "label-free quantitative proteomics, item: IlvC protein", "test system": "SA113", "conditions": "concentration not given", "scale": "reference: untreated control", "quantity": "fold change", "result": 51.6}
{"Structure (SMILES)": "CC1(C)SC2C(NC(=O)C(NC(=O)C3=C(O)C(Cc4ccco4)NC3=O)c3ccccc3)C(=O)N2C1C(=O)O (stereo not drawn)", "organism": "Escherichia coli", "test": "broth microdilution", "test system": "ATCC 35218, low-level TEM-1", "conditions": "with: clavulanic acid 6 µg/mL", "quantity": "MIC", "result": "100 µg/mL"}
{"Structure (SMILES)": "NC[C@H]1O[C@H](O[C@H]2[C@H](O)[C@@H](O[C@H]3O[C@H](CO)[C@@H](O)[C@H](N)[C@H]3O)[C@H](N)C[C@@H]2N)[C@H](O)[C@@H](O)[C@@H]1O", "organism": "Acinetobacter baumannii", "test": "colony counting", "test system": "19606, biofilm", "conditions": "25 µg/mL, 12 h, with: HNP1 8 µM", "quantity": "survival", "result": "50.1% and 33.8% and 38.8% and 31.3% and 53.9% and 51.4%"}
{"Structure (SMILES)": "COC(=O)N[C@H](C(=O)N1CCC[C@H]1c1ncc(-c2ccc(-c3ccc(-c4cnc([C@@H]5CCCN5C(=O)[C@@H](NC(=O)OC)C(C)C)[nH]4)cc3)cc2)[nH]1)C(C)C", "organism": "Hepatitis C virus", "test system": "replicon cells", "conditions": "50% effect level, with: NS5B inhibitor, ratio 2.5:1", "quantity": "combination index", "result": 0.63}
{"Structure (SMILES)": "CCCCc1ccc2nc(NC(=O)c3nc4nc(C)cc(C)n4n3)sc2c1", "organism": "Tetrahymena pyriformis and Klebsiella pneumoniae", "test": "virulence in co-culture", "quantity": "pIC50", "result": 6.18}
{"Structure (SMILES)": "O=[N+]([O-])c1ccc(C2=[N+]([O-])c3ccccc3N3CCN=C23)cc1", "organism": "Bacteroides fragilis", "quantity": "MIC90", "result": "≤ 0.06 µg/mL"}
{"Structure (SMILES)": "COc1ccc(N2CCN(C(CNC(=O)C3CCCCC3)c3ccc4c(c3)OCO4)CC2)cc1 (stereo not drawn)", "organism": "Plasmodium yoelii", "test": "oxygen consumption", "test system": "17XL", "conditions": "2 µM", "quantity": "inhibition", "result": "23%"}
{"Structure (SMILES)": "Nc1ncnc2c1ncn2[C@@H]1O[C@@H]2COP(=O)(O)O[C@H]3[C@@H](O)[C@H](n4cnc5c(=O)[nH]cnc54)O[C@@H]3COP(=O)(O)O[C@H]2[C@H]1O", "organism": "West Nile virus", "test": "RNA sequencing Reactome analysis, item: Cell-Cell communication (R-HSA-1500931)", "test system": "HFF-1", "conditions": "concentration not given, downregulated pathways, with: West Nile virus infection", "scale": "reference: WNV-infected without compound", "quantity": "fold enrichment", "result": 4.82}
{"Structure (SMILES)": "CS(=O)(=O)CCCn1c(Cn2c(=O)n(CC(F)(F)F)c3ccncc32)cc2cc(Cl)ccc21", "organism": "respiratory syncytial virus", "test": "RT-qPCR", "test system": "hospitalized infants 1-24 months, nasal swab", "conditions": "oral, 2, 1.5 or 1 mg/kg daily, day 28, low dose by age cohort", "scale": "reference: baseline", "quantity": "LS mean viral load change", "result": "-5.1 log10 copies/mL"}
{"Structure (SMILES)": "O=[N+]([O-])c1cc2c(ccc3c4cc([N+](=O)[O-])oc4ccc23)o1", "organism": "Mycolicibacterium aurum", "test": "REMA", "test system": "ATCC 23366", "quantity": "MIC90", "result": "16 µg/mL"}
{"Structure (SMILES)": "Fc1ccc(N2CCc3c(nnn3CC(c3ccccc3)c3ccccc3)C2)cc1", "organism": "human adenovirus 2", "test": "viral replication", "test system": "HEL", "quantity": "pEC50", "result": "< 4.00"}
{"Structure (SMILES)": "COc1cc(C#CC(=O)c2ccccc2)ccc1O", "organism": "Pseudomonas aeruginosa", "conditions": "10 µM, 24 h", "scale": "reference: untreated", "quantity": "exoprotease production", "result": "56%"}
{"Structure (SMILES)": "Cc1[nH]c(/C=C2\\N=C(c3ccc[nH]3)C=C2OC(C)C)cc1Cc1ccc(OC(F)(F)F)cc1.Cl", "organism": "Plasmodium yoelii", "test system": "CF1 mouse", "conditions": "oral, 80 mg/kg single dose, day 5", "quantity": "parasitaemia reduction", "result": "100%"}
{"Structure (SMILES)": "CCOC(=O)C1(Cc2ccccc2)CN(c2ccccc2)Cc2nnn(CCc3ccccc3OC)c21 (stereo not drawn)", "organism": "human adenovirus 2", "test": "viral replication", "test system": "HEL", "quantity": "pEC50", "result": "< 4.00"}
{"Structure (SMILES)": "CN[C@H](CC(C)C)C(=O)N[C@H]1C(=O)N[C@@H](CC(N)=O)C(=O)N[C@H]2C(=O)N[C@H]3C(=O)N[C@H](C(=O)N[C@H](C(=O)O)c4cc(O)cc(O)c4-c4cc3ccc4O)[C@H](O)c3ccc(c(Cl)c3)Oc3cc2cc(c3O[C@@H]2O[C@H](CO)[C@@H](O)[C@H](O)[C@H]2O[C@H]2C[C@](C)(N)[C@H](O)[C@H](C)O2)Oc2ccc(cc2Cl)[C@H]1O", "organism": "Streptococcus pyogenes", "test system": "erythromycin-resistant, 19 strains", "quantity": "MBC", "result": "8 µg/mL"}
{"Structure (SMILES)": "CCCCCCCCCCCc1c([N+](=O)[O-])oc2ccc3ccccc3c12", "organism": "Mycolicibacterium aurum", "test": "REMA", "test system": "ATCC 23366", "quantity": "MIC90", "result": "> 32 µg/mL"}
